Measured values collected from several papers.
Protocols differ between the studies behind these lines.

| SMILES | species | matrix | route | dose | setting | endpoint | result |
| --- | --- | --- | --- | --- | --- | --- | --- |
| O=C(O)C[C@H](O)C[C@H](O)/C=C/c1c(C2CC2)nc2ccccc2c1-c1ccc(F)cc1 | female human | plasma | oral | 2 mg | multiple doses | clearance | 146 mL/min |
| COc1cccc(OCCCN)c1-c1cc(Nc2cnc(C#N)cn2)n[nH]1 | human | plasma | intravenous | 80 mg/m² | patients, infusion | clearance | 1310 mL/min |
| C[C@@H]1CCC[C@H](n2cnc(-c3cc(Cl)ccc3-n3cc(Cl)nn3)cc2=O)c2cc(ccn2)-c2c(cnn2C(F)F)NC1=O | human | urine | oral | 60 mg | single dose | renal clearance | 26.9 mL/min |
| CN1CC[C@@H](NC(=O)Nc2ccc(C#N)cc2)C[C@@H]1c1nc2ccccc2[nH]1 | human | plasma | intravenous | 50 mg | single dose, healthy volunteers | clearance | 218 mL/min |
| CS(=O)(=O)n1cc2c(n1)CN([C@H]1CO[C@H](c3cc(F)ccc3F)[C@@H](N)C1)C2 | male human | urine | oral | 50 mg | single dose, fasted, healthy volunteers | renal clearance | 40 mL/min |
| C[C@@H](N)c1cc(Cl)ccc1Cn1c(=S)[nH]c(=O)c2[nH]ccc21 | human | plasma | oral | 10 mg | multiple doses, once daily, healthy volunteers | CL/F | 27.6 L/h |
| O=C1CCc2cc(OC[C@H](O)CN3CCN(c4ccc(C(F)(F)F)cc4)CC3)ccc2N1 | human | plasma | intravenous | 25 mg | multiple doses, once daily, steady state | clearance | 200 mL/min |
| O=C(NC[C@H]1CN(c2ccc(N3CCOCC3=O)cc2)C(=O)O1)c1ccc(Cl)s1 | human | urine | oral | 10 mg |  | renal clearance | 35.3 mL/min |

For quick reference, copied from above:
| SMILES | species | matrix | route | dose | setting | endpoint | result |
| --- | --- | --- | --- | --- | --- | --- | --- |
| CN1CC[C@@H](NC(=O)Nc2ccc(C#N)cc2)C[C@@H]1c1nc2ccccc2[nH]1 | human | plasma | intravenous | 50 mg | single dose, healthy volunteers | clearance | 218 mL/min |
